Measured values of several laboratories.
Each numbered part is a random draw from the data of one study; scales do not carry over between parts.

Study 1
Target: RNA binding protein fox-1 homolog 2, RRM domain, GST-SBP tag (RBFOX2, Homo sapiens, UniProt O43251-10, residues 100-194)
Technique: RNA Bind-n-Seq
Form: RNA
Medium: in vitro
Tested at: 365 nM
Notes: natural RNA segment, single round, ends assumed
Reference: no-protein control
Reading: higher = stronger binding
Endpoint: RBNS enrichment (R)
Shared flanks, not repeated: GGGAGUUCUACAGUCCGACGAUC … UGGAAUUCUCGGGUGCCAA
Construct (chain): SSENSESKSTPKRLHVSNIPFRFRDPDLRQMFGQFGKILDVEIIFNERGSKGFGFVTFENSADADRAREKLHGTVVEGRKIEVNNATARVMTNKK
GUGGACAGGUUCAGCGUUCCUUCUUUCGCACAACUUUUUUCUAAGUGUUCCAGUGACCAAGCCAGUCAUUCGGACACUGAUUUGCAGUGCAUUGGCAGUAAUUCACAAAU: 0.666
UCUGAGUCUCUCAUUUCUUUAGGGAUGUGGAGAGAAGAUGAAGUAUAGCCGUGUGUAGUGUCGCCAGAGAAGGUGGAGUUUAAGAAUGGUCUCAGUGUUAUUAAUGAGAA: 1.19
CCCUAGGGGCCAGGACAGGACCAGUUUACCUCUUUCCAGAUAUGGUGGUUGGAGGGCUGGUUCAGGUGCCCUGGAGGGAAGGGGAAGCCUGUGGCCCUGAUUUGUUCAGA: 0.471
AAAUUUGGUACUUAAGGCACAGCCAGUGUGAGGCACUGAACGCGACAUUUAUUACAAUGAGCUGCUGCACUCCUACUUUUAUAAAUUUUACUAACAAGUAGACUAAUGUA: 0.539
CCCUCCCAAGAAACCAGGUUGGAGAGGCCCAAGUCACUGGGGCCCACCCUUGCUAGGGUUUCCGUACAGCCACGUGGCCGGGGCCAUGGCUUUCAAGUGCUGUCUGGGGG: 0.372
CGCCCCACAGAACUGGCAGCAGCUUCUCCACUGUCAUCAAACUGGCCAUGUCCUGGCCCCGUCUCCACCAACCUUUGUGUGACAAAAACAAGGACAAAUUCCUGCUACUA: 0.586
AAAGUUGUGGCCUGGCCUUGAAUCCUCUAUUAAUUACUGUGUGAGCCAGAGGGAACUGCCCUGCAAGGGUGGGCCCCCAGCCGGCAGGGGAACUUUCUAGACUCCCGCUC: 0.231
CCUCUCCUGUCCCCGCCGGGCAGUGUCACUGAGUCCUUGAAAUCCUCCCCUGCCCCGCGGGUCUCUGGAUUGGGACGCACAGUGCAGUUGAGGUCUGCGUCGGGCUUGGC: 0.373
CUAGGAAGCCAACAGCAGGGCAGGUCAACUGUAGCUUAACCUUUAGAGCUCUUCAAGGUGCAGGGACUGCCUGCCCAGGCCCCAGCCCCAGACCUCACCUUUGACUGCCA: 0.329
CAGUGAAAAUCCUCAUUGUUGGAGUGUAAACCAAAUACGAAGCCCUCUUGCAAAGUAGCCUCUUUCAUCCCAUACUCAAAAUACCCAGUUUAGCAAGCAACUGAGAUUUA: 1.92
CUGGGAUUCGUUUUUUUAUUACCCUCCCUCCCUACUUGUAGGCCUCAGCUAUGGCUUGACGUAAUCGCUUUUAGACCCAGGUUGGCUUCCCUUCAUUAAGCUAUGAUCCU: 0.47
AGGAGGCUCUGCUGGCCGCAGAGAACACAGGGAUGGGAGGGUCCCUAGCCUUCGGGCACCUCCAGGGCCAGAGAGCAGGCUCAGAGCAGCUAGUGUGGAGCUCAGCAUCC: 1.5

Study 2
Target: Interferon regulatory factor 3, full length, phosphomimetic (IRF3, Homo sapiens, UniProt Q14653, residues 1-427, S386D/S396D/S398D/S402D/T404D/S405D)
Technique: protein-binding microarray
Form: double-stranded DNA, one strand shown
Medium: in vitro
Tested at: 2540 nM top
Notes: 60-bp whole probe
With: salmon DNA 0.4 mg/ml
Reference: random background probes
Reading: higher = stronger binding
Endpoint: fitted relative affinity
Shared flanks, not repeated: GCCTAGCAC … GTCTTGATTCGCTTGACGCTGCTG
Residues (chain): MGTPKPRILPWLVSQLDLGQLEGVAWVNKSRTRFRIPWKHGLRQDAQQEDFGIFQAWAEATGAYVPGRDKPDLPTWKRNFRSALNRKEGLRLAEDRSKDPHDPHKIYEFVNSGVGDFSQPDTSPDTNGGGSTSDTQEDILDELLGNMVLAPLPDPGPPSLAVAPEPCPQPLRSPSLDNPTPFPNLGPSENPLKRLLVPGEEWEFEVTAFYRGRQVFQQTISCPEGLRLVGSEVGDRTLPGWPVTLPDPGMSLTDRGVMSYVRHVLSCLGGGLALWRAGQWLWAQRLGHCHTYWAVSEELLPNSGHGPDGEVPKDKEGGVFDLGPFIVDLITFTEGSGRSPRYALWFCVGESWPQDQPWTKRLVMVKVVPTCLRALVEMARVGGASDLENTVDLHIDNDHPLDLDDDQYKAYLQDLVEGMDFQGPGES
GACGGTATCGAAACTGGGGACGTGCTA: 1.89 z-score
GACGGTTTCTTTTTCCTGACGTGCTAG: 4.94 z-score
TTAGGTCTCGACTATCGGTTAGTGCTA: -0.0673 z-score
TCATTAATGCTTCTGGAACTGTGCTAG: -0.0404 z-score
ATGCCTTTCGTCAAGAAGACGTGCTAG: 1.4 z-score
TCAATTAGAATTTTCATACTGTGCTAG: 0.699 z-score
GACGGTATCGACTTTTGGGACGTGCTA: 0.824 z-score
GACGAACTGGGGTTTCAAGACGTGCTA: -0.388 z-score
GACGGTATCGGTCTCGGGCCGTGCTAG: 4.24 z-score
CCCAGTCTCATATTTATTAGGTGCTAG: 1.76 z-score
TTAGATCTCAGTTTCGAGTAGTGCTAG: 1.88 z-score
GACTGTTTCGACTTTCGGGACGTGCTA: 3.44 z-score
GACGGTTCCGGTTTCGGGTCGTGCTAG: 6.67 z-score
GACGGTATTGGACTGGGGACGTGCTAG: -0.201 z-score
ATGTATATATGTGTATATATGTGCTAG: 0.186 z-score
TCAGATATGCCAAATCTGACTGTGCTA: 0.121 z-score
TCAGCTTTCATTTATTTACTGTGCTAG: 1.41 z-score
ATATACCTGAATATCTTCAGGTGCTAG: 0.465 z-score
GACGGTATCGGAATGGGGACGTGCTAG: 3.48 z-score
GACGGTCTCATTCTCCTGACGTGCTAG: 2.66 z-score
TTAGGACTGGACTTTCGCTTAGTGCTA: 0.0217 z-score
GACGGTTTTGACTTTCGGGACGTGCTA: 1.65 z-score
ATAGAACTGAGTATCGATTAGTGCTAG: 0.238 z-score
GACGATTTCAGTATGGAGACGTGCTAG: 1.49 z-score

Study 3
Target: Prothrombin, mature alpha-thrombin (F2, Homo sapiens, UniProt P00734)
Technique: aptamer microarray, sandwich
Form: DNA with 2'F-ANA
Medium: in vitro
Tested at: 200 nM
Notes: whole 15-mer aptamer, many near background
With: Cy3 exosite-II aptamer, 400 nM
Reading: higher = stronger binding
Endpoint: mean fluorescence intensity
Oligonucleotide: GGTTGGTGTGGTTGG
2'F-ANA at 7 8 13 14: 211 a.u.
2'F-ANA at 2 4 5 8 9 11: 107 a.u.
2'F-ANA at 1 2 3 4 5 6 8 10 11 13: 47.4 a.u.
2'F-ANA at 2 4 5 6 11 12 15: 94.4 a.u.
2'F-ANA at 10 11 13 14 15: 96.6 a.u.
2'F-ANA at 1 2 3 4 5 6 8 9 10 11 12 14: 51.1 a.u.
2'F-ANA at 1 4 5 8 11 13 14 15: 50.4 a.u.
2'F-ANA at 2 5 7 9 13: 52.2 a.u.
2'F-ANA at 1 2 6 11 14 15: 57.1 a.u.
2'F-ANA at 2 3 4 5 6 8 11 12 13: 95.1 a.u.
2'F-ANA at 1 2 6 8 9 10 13 15: 55 a.u.
2'F-ANA at 1 3 5 8 12 13 15: 97 a.u.
2'F-ANA at 5 6 9 10 11 14 15: 55.5 a.u.
2'F-ANA at 1 3 4 5 7 8 10 11 12 14 15: 47.1 a.u.
2'F-ANA at 2 6 11 14: 113 a.u.
2'F-ANA at 5 6 7 13: 53.2 a.u.
2'F-ANA at 4 5 6 7 8 9 10 12 14: 47 a.u.

Study 4
Target: Sal-like protein 4, full length isoform B (SALL4, Homo sapiens, UniProt Q9UJQ4-2, residues 1-616)
Technique: universal PBM
Form: double-stranded DNA, one strand shown
Medium: in vitro
Tested at: not given
Notes: 8-mer, flanks averaged, mean of replicates
Reading: higher = stronger binding
Endpoint: E-score
Target sequence (chain): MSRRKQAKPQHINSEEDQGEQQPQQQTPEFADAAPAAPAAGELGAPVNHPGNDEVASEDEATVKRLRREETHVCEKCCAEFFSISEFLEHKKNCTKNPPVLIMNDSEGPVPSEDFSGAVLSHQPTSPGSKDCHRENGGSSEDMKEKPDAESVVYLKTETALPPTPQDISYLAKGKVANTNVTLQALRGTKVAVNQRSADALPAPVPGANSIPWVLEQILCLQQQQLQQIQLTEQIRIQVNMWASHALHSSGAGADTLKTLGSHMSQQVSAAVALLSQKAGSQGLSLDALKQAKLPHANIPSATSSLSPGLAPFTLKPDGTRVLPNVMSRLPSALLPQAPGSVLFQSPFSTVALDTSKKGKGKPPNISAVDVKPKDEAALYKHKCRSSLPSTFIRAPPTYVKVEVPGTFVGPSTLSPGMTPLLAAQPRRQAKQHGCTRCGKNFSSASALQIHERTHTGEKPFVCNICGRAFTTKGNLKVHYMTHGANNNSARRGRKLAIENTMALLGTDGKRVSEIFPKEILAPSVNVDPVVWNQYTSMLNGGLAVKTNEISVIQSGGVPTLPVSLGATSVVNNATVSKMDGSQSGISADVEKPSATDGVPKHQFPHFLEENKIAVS
CTCACGGA: -0.212
CAAAATCG: 0.082
ATGGGATG: -0.106
GGATTGTA: 0.133
TCGAGAGA: -0.14
CCAGGTCA: -0.065
AAGCGGGC: -0.283
AAGTCGGG: -0.112
AGGGTAGG: -0.214
ACTTGCAC: 0.041
AAGCCTGC: -0.22
TACGTCAA: 0.0702
CTTGAATA: 0.245
CGTGTTAA: 0.148
GACATGTC: 0.0485
ATAGAACA: 0.229

For quick reference, copied from above (study 1):
AAAGUUGUGGCCUGGCCUUGAAUCCUCUAUUAAUUACUGUGUGAGCCAGAGGGAACUGCCCUGCAAGGGUGGGCCCCCAGCCGGCAGGGGAACUUUCUAGACUCCCGCUC: 0.231
AAAUUUGGUACUUAAGGCACAGCCAGUGUGAGGCACUGAACGCGACAUUUAUUACAAUGAGCUGCUGCACUCCUACUUUUAUAAAUUUUACUAACAAGUAGACUAAUGUA: 0.539
CUGGGAUUCGUUUUUUUAUUACCCUCCCUCCCUACUUGUAGGCCUCAGCUAUGGCUUGACGUAAUCGCUUUUAGACCCAGGUUGGCUUCCCUUCAUUAAGCUAUGAUCCU: 0.47
AGGAGGCUCUGCUGGCCGCAGAGAACACAGGGAUGGGAGGGUCCCUAGCCUUCGGGCACCUCCAGGGCCAGAGAGCAGGCUCAGAGCAGCUAGUGUGGAGCUCAGCAUCC: 1.5
CGCCCCACAGAACUGGCAGCAGCUUCUCCACUGUCAUCAAACUGGCCAUGUCCUGGCCCCGUCUCCACCAACCUUUGUGUGACAAAAACAAGGACAAAUUCCUGCUACUA: 0.586
CCCUCCCAAGAAACCAGGUUGGAGAGGCCCAAGUCACUGGGGCCCACCCUUGCUAGGGUUUCCGUACAGCCACGUGGCCGGGGCCAUGGCUUUCAAGUGCUGUCUGGGGG: 0.372
CUAGGAAGCCAACAGCAGGGCAGGUCAACUGUAGCUUAACCUUUAGAGCUCUUCAAGGUGCAGGGACUGCCUGCCCAGGCCCCAGCCCCAGACCUCACCUUUGACUGCCA: 0.329
CAGUGAAAAUCCUCAUUGUUGGAGUGUAAACCAAAUACGAAGCCCUCUUGCAAAGUAGCCUCUUUCAUCCCAUACUCAAAAUACCCAGUUUAGCAAGCAACUGAGAUUUA: 1.92
CCCUAGGGGCCAGGACAGGACCAGUUUACCUCUUUCCAGAUAUGGUGGUUGGAGGGCUGGUUCAGGUGCCCUGGAGGGAAGGGGAAGCCUGUGGCCCUGAUUUGUUCAGA: 0.471
GUGGACAGGUUCAGCGUUCCUUCUUUCGCACAACUUUUUUCUAAGUGUUCCAGUGACCAAGCCAGUCAUUCGGACACUGAUUUGCAGUGCAUUGGCAGUAAUUCACAAAU: 0.666
CCUCUCCUGUCCCCGCCGGGCAGUGUCACUGAGUCCUUGAAAUCCUCCCCUGCCCCGCGGGUCUCUGGAUUGGGACGCACAGUGCAGUUGAGGUCUGCGUCGGGCUUGGC: 0.373
